Assay results gathered from unrelated publications.
Each numbered part is a random draw from the data of one study; scales do not carry over between parts. Substitutions count along the parent as printed.

Block 1
Target: RING finger protein unkempt homolog, zinc fingers 1-6, GST-SBP tag (UNK, Homo sapiens, UniProt Q9C0B0, residues 30-357)
UniProt Q9C0B0, sequence (30-357, looked up): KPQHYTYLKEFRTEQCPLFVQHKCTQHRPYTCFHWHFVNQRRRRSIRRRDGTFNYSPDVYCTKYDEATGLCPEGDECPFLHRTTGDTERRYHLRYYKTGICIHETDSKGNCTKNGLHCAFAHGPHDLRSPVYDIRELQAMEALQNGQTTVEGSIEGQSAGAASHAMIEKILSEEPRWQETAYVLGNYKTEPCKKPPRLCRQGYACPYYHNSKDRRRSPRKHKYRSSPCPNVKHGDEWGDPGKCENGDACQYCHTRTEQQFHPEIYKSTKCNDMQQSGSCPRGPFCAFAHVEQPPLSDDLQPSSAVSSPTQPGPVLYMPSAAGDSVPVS
Method: RNA Bind-n-Seq
Form: RNA
Matrix: in vitro
Tested at: not given
Notes: RNA with constant flanks, human and mouse sites, ends assumed
Relative to: input RNA pool
Direction: higher = stronger binding
All sequences stand within: GGGAGUUCUACAGUCCGACGAUC … CAACAGAGGAUUGAGCAUCA
Oligonucleotide	bound/input enrichment
GCCUUCUUCACUUUGCCCAAGACUGACUCUGGUAAUGAGGAUUUAGUCAUAAUUUGGUUAAGAGACAUGCGGCUCAUGCAGGGUGAUGAGAUCUGUCUGCGGUACAAAGGGGAUCUGGCG	0.318 ratio
UCUGCAGAGCUGAGGGCGCCGUCUUCGGCCAGGCCGUGACACGGUGAAUUAAAGUCGGCUAUAGAUUUCUGUGAAAAUGUCGGUUCUUAUAUCACAGAGUGUGAUAAAUUAUGUGGAAGA	0.157 ratio
UCUUCAAUUAUUGGAGAAAACAAGAAUUAUCUAGAACUUAGUAAGUUAUUAAAAAAGAAAGGAACUUCUACAUUUCUUCAAAGAUUGGAACGAGGAGAUCCAGUCACCAUAGCAUCACAA	6.79 ratio
GAAAAACUUUUUGCUGAAGACACAGAAGCAAAGAACCCAUUUUCUACUCAGGACACAGAUUUAGACUUGGAGAUGUUAGCUCCCUAUAUCCCAAUGGAUGAUGACUUCCAGUUACGUUCC	0.383 ratio
CCGCCUCGGGUCGUGGAGCCAGGAGCGACGUCACCGCCAUGGCAGGCAUCAAAGCUUUGAUUAGUUUGUCCUUUGGAGGAGCAAUCGGACUGAUGUUUUUGAUGCUUGGAUGUGCCCUUC	0.139 ratio

Block 2
Target: CCNA2, cyclin fold, Cln2 fusion (human)
Method: yeast growth competition, sequencing
Matrix: yeast
Notes: weak parent motif
Relative to: not given
Direction: higher = stronger binding
Parent: SLBP docking peptide (human); ARYKRKLLINDFG
Change	normalised enrichment score
R2P	1.4
R5E	0.37
A1R	0.958
I9W	2
G13N	2.29
R5V	1.53

Block 3
Target: Prothrombin, mature alpha-thrombin (F2, Homo sapiens, UniProt P00734)
Method: aptamer microarray, sandwich
Form: DNA with 2'F-ANA
Matrix: in vitro
Tested at: 200 nM
Notes: whole 15-mer aptamer, many near background
Together with: Cy3 exosite-II aptamer, 400 nM
Direction: higher = stronger binding
Oligonucleotide: GGTTGGTGTGGTTGG
Modification	mean fluorescence intensity [a.u.]
2'F-ANA at 3 8 9 10 12 13 15	515
2'F-ANA at 1 2 5 8 9 12 13 14	45.4
2'F-ANA at 1 6 7 8 10 12 14 15	50.1
2'F-ANA at 1 2 3 4 5 6 8 13 15	77.4
2'F-ANA at 3 5 7 9 10 11 12 13 14 15	58.6
2'F-ANA at 1 4 5 8 10 11 13 15	61.4
2'F-ANA at 1 3 5 6 7 8 9 10 12 14 15	50.3

Further values, each from its own experiment
Substance	target	test	system	setting	how to read	endpoint	result
PhoQ, residues 284 288 289 292 302 303 SACGEM	PhoP, residues 12 14 15 18 19 NFCKL (Escherichia coli, UniProt P23836)	Sort-seq, item: YFP reporter	E. coli	PhoQ-PhoP variant library, together with: 10 µM Mg2+	relative to: high Mg2+ state, higher = stronger signaling	fold induction	0.552

Repeated from above (block 3):
Modification	mean fluorescence intensity [a.u.]
2'F-ANA at 1 4 5 8 10 11 13 15	61.4
2'F-ANA at 1 3 5 6 7 8 9 10 12 14 15	50.3
2'F-ANA at 3 8 9 10 12 13 15	515
